Results from different studies.
Every numbered part comes from another study and shows a few of its results, in no order. Changes are numbered by the printed parent chain.

Series 1 — technique: protein binding microarray; form: double-stranded DNA, one strand shown; sample: in vitro; concentration: not given; relative to: not given; direction: higher = stronger binding
Target: Histone acetyltransferase KAT6A, winged helix 1, GST fusion (KAT6A, Homo sapiens, UniProt Q92794, residues 1-85)
Notes: 8-mer, flanks averaged, mean of 2 arrays, mostly near background
Construct (chain): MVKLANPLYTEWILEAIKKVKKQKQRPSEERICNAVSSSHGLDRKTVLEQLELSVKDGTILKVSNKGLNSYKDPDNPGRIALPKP
Oligonucleotide | E-score
AACACACC | -0.064
CCCTTGTA | -0.246
AGAGGGCT | -0.0481
ATCCAACA | -0.165
AATCGCTG | 0.109
CATTTCCG | 0.124
AATTGGTC | -0.121
ACAACAAT | -0.242
CAAATTAG | -0.108
ACGCTCAA | 0.0359
TATAAGAA | -0.0495
ATTGATTC | 0.091
AAGCATAG | -0.148
GTTCTGCA | -0.0174
ATCCCCGG | 0.221
TACAGACA | -0.119
CTCCAGCC | 0.0387
CCACAGAC | -0.223

Series 2 — target: CCNB2, cyclin fold, Cln2 fusion (human); technique: yeast growth competition, sequencing; sample: yeast; notes: weak parent motif; relative to: not given; direction: higher = stronger binding
Starting sequence: PKN2 docking peptide (human); VSAVRKLDFSDTM
Substitution | normalised enrichment score
VSAVRKLDFHDTM [S10H] | 0.119
VSAVVKLDFSDTM [R5V] | 0.0385
VSAVRQLDFSDTM [K6Q] | 0.318
VYAVRKLDFSDTM [S2Y] | 0.115
VSAVRKLDFSDFM [T12F] | 0.904
VSAVRKLDFSDSM [T12S] | 0.892
VSAVRKLDFSHTM [D11H] | 0.331
VSAVRALDFSDTM [K6A] | 0.204
VSAVRKLDFDDTM [S10D] | 1.56
VSAVRNLDFSDTM [K6N] | 0.187
VSAVRKLDGSDTM [F9G] | 0.505
VSCVRKLDFSDTM [A3C] | 2.32
VSAVRGLDFSDTM [K6G] | 0.0486
VSAVRKLDESDTM [F9E] | -0.0521
VSAVYKLDFSDTM [R5Y] | -0.289
VSAVRKCDFSDTM [L7C] | 0.429

Series 3 — technique: DHFR PCA, deep sequencing; sample: yeast; added: (+)-ABA 1.4 µM; relative to: wild-type fitted maximum; direction: higher = stronger binding
Target: ABI1, truncated, D143A, DHFR fusion (Arabidopsis thaliana)
Notes: methotrexate growth selection, single substitutions
Starting sequence: PYL1, truncated, DHFR fusion (Arabidopsis thaliana); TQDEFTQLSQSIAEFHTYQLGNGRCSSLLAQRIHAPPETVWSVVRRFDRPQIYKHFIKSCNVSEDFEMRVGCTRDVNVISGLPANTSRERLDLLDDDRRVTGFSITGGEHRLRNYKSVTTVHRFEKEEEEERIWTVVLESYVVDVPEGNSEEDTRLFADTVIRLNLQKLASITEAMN
Substitution | relative binding score
T1C | 65.3%
F124V | 59.6%
V78N | 23.6%
T154P | -9.88%
L166E | 9.48%
T1E | 65.6%
N177Q | 49.7%
L169Y | -21.4%
E89H | 3.12%
T135M | -7.08%
W41S | -20.5%
C60D | -9.42%

Single results of other studies
Molecule | target | assay | test system | conditions | how to read | endpoint | result
PhoQ, residues 284 288 289 292 302 303 GLASVI | PhoP, residues 12 14 15 18 19 LHATL (Escherichia coli, UniProt P23836) | Sort-seq, measured: YFP reporter | E. coli | PhoQ-PhoP variant library, added: 10 µM Mg2+ | relative to: high Mg2+ state, higher = stronger signaling | fold induction | 3.46

Some of these lines once more (series 3):
Substitution | relative binding score
F124V | 59.6%
V78N | 23.6%
T154P | -9.88%
L166E | 9.48%
